Measurements collected from several papers.
Each line is one published result; not all experiments were run side by side. Numbers after ± are the reported error.

| SMILES | cell line | test | conditions | how to read | quantity | value |
| --- | --- | --- | --- | --- | --- | --- |
| Cc1cccc(O)c1C(=O)OCC1(O)C(Nc2ccc3c(c2)Cc2ccccc2-3)C(N)C(NC(=O)N(C)C)(C(C)O)C1(C)O (stereo not drawn) | NCI-H322M | cell growth or viability, SRB |  |  | GI50 | 1.07 µM |
| CNC(=O)c1cc(Oc2ccc(NC(=O)c3ccc(-c4cccc(COC(=O)CCC(=O)OC5OC6OC7(C)CCC8C(C)CCC(C5C)C68OO7)c4)cn3)cc2)ccn1 (stereo not drawn) | Huh-7 | PI staining, flow cytometry | concentration not given, 24 h |  | G0/G1 phase cells | 38% |
| CCCc1cc(OC)c2c(c1OC)OCO2 | T47D | cell growth or viability, MTT | 72 h |  | GI50 | 90.2 µM |
| CCCCCCN(CCCCCC)[C@H]1C=C[C@]2(O[C@H]([C@@H](CC)C(=O)[C@@H](C)[C@@H](O)[C@H](C)[C@@H]3O[C@@H]([C@@H](CC)C(=O)O)CC[C@@H]3C)[C@@H](C)C[C@H]2C)O[C@@]12CC[C@@](C)([C@H]1CC[C@](O)(CC)[C@H](C)O1)O2 | HMLER CD24low/CD44high | cell viability, CellTiter-Blue | 72 h | baseline: IC50 HMLER CD24high/CD44low over CD24low/CD44high | selectivity ratio | 13.3 |
| CC[C@H](C)[C@H](NC(=O)[C@H](Cc1ccccc1)NC(=O)[C@H](CC(=O)O)NC(=O)[C@H](CCCCN)NC(=O)[C@H](C)NC(=O)[C@H](CCCCN)NC(=O)[C@H](CC(N)=O)NC(=O)[C@H](CC(C)C)NC(=O)[C@H](Cc1c[nH]c2ccccc12)NC(=O)[C@H](CCC(=O)O)NC(=O)[C@H](CCCCN)NC(=O)[C@@H](NC(=O)CNC(=O)[C@H](C)N)[C@@H](C)O)C(=O)N[C@@H](CCCCN)C(=O)N[C@@H](CCC(=O)O)C(=O)N[C@@H](CCCCN)C(=O)NCC(=O)N[C@@H](CC(C)C)C(=O)N[C@@H](CCC(=O)O)C(=O)N[C@@H](CCSC)C(=O)N[C@@H](CC(C)C)C(=O)N[C@@H](CO)C(=O)N[C@@H](C)C(=O)N[C@@H](C)C(=O)N[C@@H](C)C(=O)N[C@@H](CC(N)=O)C(=O)N[C@@H](C)C(=O)N[C@@H](C)C(=O)N[C@@H](CC(C)C)C(=O)N[C@@H](CC(N)=O)C(=O)O | HEK293 cells | intracellular calcium, FLIPR | 0.1% BSA |  | EC50 | > 100 µM |
| CC/C=C\C/C=C\C/C=C\C/C=C\C/C=C\C/C=C\CCC(=O)Nc1ccn(C2OC(CO)C(O)C2(F)F)c(=O)n1 (stereo not drawn) | SN12C | NCI60 screen |  |  | CC50 | 33.8 µM |
| COC[C@@H](NC(C)=O)C(=O)NCc1ccc(-c2cccc(I)c2)cc1 | CAD | Na+ current | 10 µM | baseline: 0.1% DMSO, hyperpolarizing | V1/2 shift | ~8.2 mV |
| CC(C)[C@]12O[C@H]1[C@@H]1O[C@]13[C@]1(O[C@H]1C[C@H]1c4c(C(=O)c5ccccc5)oc(OC(=O)c5ccccc5)c4CC[C@@]13C)[C@@H]2O | MV4-11 | cell viability | 48 h | baseline: compound over triptolide | IC50 ratio | 2.1 |
| CC1CN1c1cc(O)c2nc(N)sc2c1 (stereo not drawn) | NUP98-NSD1 mouse cells | western blot | concentration not given, 8 days |  | H3K36me3 level | no effect |
| CC(C)CC(O)(CC(C)C)c1cn(C(=O)N2CCCC2)nn1 | mouse T-cells | SILAC proteomics, item: SKP1A | 1 nM, 6 h, unit not given | baseline: DMSO | protein level | 1.04 ± 0.01 |
| C=CCc1cc(OC)c(OC)c(OC)c1OC | A-375 | cell growth or viability, MTT | 72 h |  | GI50 | > 250 µM |
| CN1C(=O)C2(Cc3ccc(CC45SSC(CO)(C(=O)N4C)N(C)C5=O)cc3)SSC1(CO)C(=O)N2C (racemic) | MCF7 | microarray, item: CITED2 | 600 nM, unit not given, added: deferoxamine 300 µM | baseline: deferoxamine alone | mRNA level change | -1.5 |

Excerpt of the above:
| SMILES | cell line | test | conditions | how to read | quantity | value |
| --- | --- | --- | --- | --- | --- | --- |
| CC[C@H](C)[C@H](NC(=O)[C@H](Cc1ccccc1)NC(=O)[C@H](CC(=O)O)NC(=O)[C@H](CCCCN)NC(=O)[C@H](C)NC(=O)[C@H](CCCCN)NC(=O)[C@H](CC(N)=O)NC(=O)[C@H](CC(C)C)NC(=O)[C@H](Cc1c[nH]c2ccccc12)NC(=O)[C@H](CCC(=O)O)NC(=O)[C@H](CCCCN)NC(=O)[C@@H](NC(=O)CNC(=O)[C@H](C)N)[C@@H](C)O)C(=O)N[C@@H](CCCCN)C(=O)N[C@@H](CCC(=O)O)C(=O)N[C@@H](CCCCN)C(=O)NCC(=O)N[C@@H](CC(C)C)C(=O)N[C@@H](CCC(=O)O)C(=O)N[C@@H](CCSC)C(=O)N[C@@H](CC(C)C)C(=O)N[C@@H](CO)C(=O)N[C@@H](C)C(=O)N[C@@H](C)C(=O)N[C@@H](C)C(=O)N[C@@H](CC(N)=O)C(=O)N[C@@H](C)C(=O)N[C@@H](C)C(=O)N[C@@H](CC(C)C)C(=O)N[C@@H](CC(N)=O)C(=O)O | HEK293 cells | intracellular calcium, FLIPR | 0.1% BSA |  | EC50 | > 100 µM |
